Assay results collected from several papers.
Numbered parts are unrelated; each lists some results of a single study.

Sample 1 — technique: RNA Bind-n-Seq; form: RNA; medium: in vitro; concentration: 365 nM; relative to: no-protein control; reading: higher = stronger binding
Target: RNA binding protein fox-1 homolog 2, RRM domain, GST-SBP tag (RBFOX2, Homo sapiens, UniProt O43251-10, residues 100-194)
Setting: natural RNA segment, single round, ends assumed
Constant ends, left off below: GGGAGUUCUACAGUCCGACGAUC … UGGAAUUCUCGGGUGCCAA
Target sequence (chain): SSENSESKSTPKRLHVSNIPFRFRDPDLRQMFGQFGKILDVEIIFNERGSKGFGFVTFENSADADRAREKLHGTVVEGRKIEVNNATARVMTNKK
Oligonucleotide | RBNS enrichment (R)
UCUUCCCCAAACUAGCUCAUUAAAGAUGAAAUAGACCAGCUCUCUUCAGUGAAGAGGACAAAUAGUUUAUUUAAAGCAUUUGUUCCAAUAAAAUAACUAGAGGGAAACUU | 0.444
CUACAGAACUUAAAGUGAGGGAACCAUUUCCUCUCACAGACAAAGAGGCCUGGGAUAUUAGGACUUUGGGGUUUGAGAGCAUCAUGGGGCAGACAGAUGGUGGAUGGUCU | 0.671
GUGCCUCUACCAUGUCUGCUGUUUGGGUCUCUGCGCUGUGUGUUCUCAGGUGCAGCCAUGACUCCCCACUCUGUGCAUUCCACCUUCCAGUUGUUUUUCUCUGAGGGGGU | 0.268
ACAGAGUGUUGUCUACAAAGUGCAAGUGUGUUAAUGUUUAUGUAAAUUAUGCAGGUGAUAACUUUAUGGUUUGGGACUGUUUAUGGGCUCUUUUAAGUGAAUUUUCAAAU | 5.47
CUCUGUGCUGACCUUAUUCUUGGGGAAGGGAACAGAUUUUGACCUAGAUCAAGUGUAACUUAGGUCCUCACCCUUGGGACGACCUUGCCUUUUCUGCCUUGAGGGGCAGU | 0.297
AAUGUGCCUUUUAAUUAGUGAUCUAGAAAGAAGUUCAGCCGAACCCACACCCCAACUCCCUCCCAAGAACUUCGGUGCCUAAAGCCUCCUGUUCCACCUCAGGUUUUCAC | 0.742
GACUUUGUGCCUUAAGUCUACUCAGUGCCUGGUGAAGCCACCCUCAGCCCUUCACAGGCCUGAACCAGUAGGGGCCAGUGGGCCAGGUAAGCCCUAGAGCCUUGAACCAG | 0.444
CCACGCAGCCGCCUGCCCGGGAGAACCCUGCCUGAAGCUCUGGAAACUUGUGGGUGGGGCCCAGGGAGAUGGGGAGGGAGUGGCCCAGGCCUGCCCCUUCGCUCCUGCCU | 0.378
AUCGCCACAGUCUCUGGGGCUCCAGGGCUGCGCUGUAACUGAGCUUCAUCCAGAAUGAGCAAAACACUGUCCAGUCUUUGUUACGAUUUUGUAAUAAAUGUGUACAUUUU | 0.215
UAGACUGGAGAGCAGGGCCUCUCUUGGGAAGGACACAAGGCGGGCAAGGCUGCUGGCAGACUUCUCCACUGACCUGAGUGUGCUUUUUUUUUCCCCUAAAUGUAUUGCAU | 1.06
AGUCUGUAGGGAUACAUUUUUCUGUGGUUGGUUUUCUUCAGCUAAGAGUCGCUGUCAGCAGGAGCUUUCUGACCUGUUAAUUCAGGUUCUUUUUGGUUUAGGUUGGGUUU | 0.605
GGUGUUGGCCAGAAAAGUCCAGAUUCCUCUGGGAUCCCACCCUGGCCUCUCCUGGAACUCUGAACCUGCUGUGGAAGGAAUUGGCCAUGACCUUCACCUCUGGAGAGUAG | 0.266

Sample 2 — technique: RNA Bind-n-Seq; form: RNA; medium: in vitro; concentration: 200 nM; setting: whole 134-nt RNA, ends assumed; together with: 150 mM KCl; relative to: input library; reading: higher = stronger binding
Target: Ras GTPase-activating protein-binding protein 1, full length (G3BP1, Homo sapiens, UniProt Q13283)
Chain of UniProt Q13283 (whole entry, looked up): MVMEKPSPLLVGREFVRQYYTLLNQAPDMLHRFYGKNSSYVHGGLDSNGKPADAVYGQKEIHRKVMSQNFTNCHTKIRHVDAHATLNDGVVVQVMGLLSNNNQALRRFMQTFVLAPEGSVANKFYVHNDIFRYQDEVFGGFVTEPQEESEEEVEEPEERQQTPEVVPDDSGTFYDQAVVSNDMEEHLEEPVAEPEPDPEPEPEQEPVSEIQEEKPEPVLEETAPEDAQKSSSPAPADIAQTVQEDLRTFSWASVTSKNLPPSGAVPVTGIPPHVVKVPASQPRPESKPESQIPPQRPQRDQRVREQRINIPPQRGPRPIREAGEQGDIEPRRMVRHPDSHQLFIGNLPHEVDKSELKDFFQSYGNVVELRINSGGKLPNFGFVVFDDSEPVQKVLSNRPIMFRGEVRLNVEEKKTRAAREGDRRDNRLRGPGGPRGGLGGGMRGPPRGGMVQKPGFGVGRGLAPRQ
Constant ends, left off below: GGGAGUUCUACAGUCCGACGAUC … UGGAAUUCUCGGGUGUCAAGG
Oligonucleotide | log2 enrichment
UCAAGUCCUGUGCUACACAUCGUAUGUACCGAAUCGGAAAGGUUUGGUUUUUGGAAAGUAUUAUGUUACGCCGUUCGGAUCUGCACUUCC | -0.785
UAACUUUAGAGGAGGAUCUGAUGGAUAUGGCAGGGGACGUGGAUUUGGGGAUGGCUAUAAUGGGUAUGGAGGAGGACCUGGAGGUGGCAA | 0.605
UCAAGUCCUGUGCUACACAUCGUAUGUACCGAAUCGGGGAAGGGAAGGGGAAGGGAAAGUAUUAUGUUACGCCGUUCGGAUCUGCACUUC | 0.919
UGGCCCUGGUGGCAUGCGGGGAGGAAGAGGUGGCCUCACGGAUCGUGGUGGUCCCGGUGGAAUGUUCAGAGGUGGCCGUGGUGGAGACAG | 0.412
CACAGACAACACGCACCCACACAGACACAGAGGGAAGGGGUUGGGAUGGGGACAGGGUGCACAGCAGGGCGGGGUAGGACCCCAGCCUCU | 1.79
UGCGGGCGGCUGAGACGCCGCCUGCCUGGCACCUAGGAGCGCAGCGGAGCCCCGACACCGCCGCCGCCGCCAUGGAGUCCGAGACCGAAC | 1.31
UAGGUAUUUCUGGGAAAAGCCAGCUUCUGUUUGCACUGGUCUUCACAACUCGUUACCUGGAUCUUUUUACUUCAUUUAUUUCAUUGUAUA | -2.43
GUCCUGUGCUACACAUCGUAUGUACCGAAUCGGAAAAAAGGAAAAAAGGGAAAAAAGGGAAAGUAUUAUGUUACGCCGUUCGGAUCUGCA | -0.938
CCUGUGCUACACAUCGUAUGUACCGAAUCGGGGUUUGGGGAAAAAGGGGUUUUUUUGGGGAAAGUAUUAUGUUACGCCGUUCGGAUCUGC | 0.107
CCUCAAGUCCUGUGCUACACAUCGUAUGUACCGAAUCGGAGGGGAGGGGAGGAAAGUAUUAUGUUACGCCGUUCGGAUCUGCACUUCCAG | 0.49
UGCUAGGCAAUGGAUCACUUGGAGUCCUUUAUUGCUGAAUGUGAUCGGAGAACUGAGCUCGCCAAGAAGCGGCUGGCAGAAACACAGGAG | 0.508
UUAAGGGAAUCUAUUGCUGAACACAAACCUCAUAUUGACAAACUACUAAAGAUAGGCCCACAACUAAAGGAAUUAAACCCUGAGGAAGGG | -0.241
GUCCUGUGCUACACAUCGUAUGUACCGAAUCGGAAAAAGGUUUUUUUGGAAAAAAAGGAAAGUAUUAUGUUACGCCGUUCGGAUCUGCAC | -1.39
UAACUUUAGAGGAGGAUCUCAUGGAUAUGGCAGUGGACGUGGAUUUGGGGAUGGCUAUAAUGGGUAUGGAGGAGGACCUGGAGGUGGCAA | 0.441

Sample 3 — technique: universal PBM; form: double-stranded DNA, one strand shown; medium: in vitro; concentration: not given; reading: higher = stronger binding
Target: Sal-like protein 4, full length isoform B (SALL4, Homo sapiens, UniProt Q9UJQ4-2, residues 1-616)
Setting: 8-mer, flanks averaged, mean of replicates
Oligonucleotide | E-score
ATCTGAGA | -0.0374
GAGCCCAA | -0.122
AGGTTAGG | -0.094
TAATGATA | 0.333
CGAATTCG | -0.119
CATAGCGA | 0.0189
ATTTCCGC | 0.0267
AAGATCCC | -0.0908
ACCATGGC | -0.0453
CACCGAGA | -0.267
AAGTTGCC | -0.26
TCCTTTCA | 0.0604
ATGCGCCG | -0.0968
CCTCAACC | -0.17
ATGCTCTA | 0.00516
ACCCCCTC | -0.0988
ATTTGGAC | 0.0894
AACTGCAG | -0.112

Sample 4 — technique: protein-binding microarray; form: double-stranded DNA, one strand shown; medium: in vitro; concentration: not given; reading: higher = stronger binding
Target: Hepatocyte nuclear factor 3-beta, forkhead domain (FOXA2, Homo sapiens, UniProt Q9Y261, residues 142-269)
Setting: k-mer, scored over probes, only values ≥0.25
Target sequence (chain): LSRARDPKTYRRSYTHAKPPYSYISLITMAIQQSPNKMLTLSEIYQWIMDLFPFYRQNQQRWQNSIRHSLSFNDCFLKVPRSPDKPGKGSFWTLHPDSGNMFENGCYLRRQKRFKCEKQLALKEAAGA
Oligonucleotide | E-score
ATCAACAT | 0.406
GTTGATTA | 0.261
ATAGTAGA | 0.302
ATAATATG | 0.321
AAAATCCA | 0.31
TATAACAA | 0.363
ACGATAAT | 0.286
CATATAGC | 0.281
AGTAACAG | 0.296
AAGTTTAT | 0.263
GTAAATCA | 0.282
ATTCACAA | 0.28
ACAGCTAT | 0.252
AAATATGG | 0.356
ACTGTAAA | 0.253
CTGTTTGC | 0.305
TATCATAA | 0.338
AAATATTG | 0.32
GCATAATA | 0.327
AACGTAAT | 0.297
TAAACAGA | 0.284
CGTACATA | 0.362
GATTAACA | 0.309
GTATGACA | 0.299

Sample 5 — technique: RNA Bind-n-Seq; form: RNA; medium: in vitro; concentration: not given; relative to: input RNA pool; reading: higher = stronger binding
Target: RING finger protein unkempt homolog, zinc fingers 1-6, GST-SBP tag (UNK, Homo sapiens, UniProt Q9C0B0, residues 30-357)
Setting: RNA with constant flanks, human and mouse sites, ends assumed
Constant ends, left off below: GGGAGUUCUACAGUCCGACGAUC … CAACAGAGGAUUGAGCAUCA
Construct (chain): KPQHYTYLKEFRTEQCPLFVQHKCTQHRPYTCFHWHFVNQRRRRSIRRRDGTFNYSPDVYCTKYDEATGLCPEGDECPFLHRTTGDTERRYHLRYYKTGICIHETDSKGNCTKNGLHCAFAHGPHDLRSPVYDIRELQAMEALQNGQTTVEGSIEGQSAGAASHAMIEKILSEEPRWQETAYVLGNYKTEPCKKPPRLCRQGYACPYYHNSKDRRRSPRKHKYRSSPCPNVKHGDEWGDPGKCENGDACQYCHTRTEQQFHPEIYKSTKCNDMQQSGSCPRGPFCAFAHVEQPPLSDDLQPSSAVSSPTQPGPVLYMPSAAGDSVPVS
Oligonucleotide | bound/input enrichment
AGUUGAUAGUUUCACUCCCAAGCAAUGAAUUGCUUCUGUGUGUUUCCCUGUAGGACUCAAUAGUAAAUGCUGUCUGUCUUACACAUUUAUAAGGACCCUGCAAGACGACGACAAAGGCCU | 0.59 ratio
GUUUUAAAGAAGGCACUUGAAAUUACAAAAGCAAGUCAUGUGACCCCUCAGCCAGAAGAUAGUUGGAUCCCUUUACUUAUUAAUGCCAUUGAUCAUUGCAUGAAUAGAAUCAAGGAGCUC | 0.176 ratio
AAGAGUCCAGUGAUGAUGAUGAUGAGGAGGACCAAAAGAAACAGCCUGUCCAGAAGGGAGUUAAGCCCCAAGCCAAGGCAGCCAAAGCUCCUCCUAAGAAGGCCAAGAGCUCUGAUUCUG | 0.0473 ratio
GGUUUCAAUGAAACAGAUGAUUUGAAGAGAGCUGAGAGUAUGCUUCAACAAGCAGAUAAAUUAGGUUGCAGACAGUUUGUUACCCCUGCUGAUGUUGUCAGUGGAAACCCCAAACUCAAC | 0.119 ratio
GGAAUUGAAAACUGGCACCCCAUCUCUUUGAAACAUCUGGUAAUUUGAAUUCUAGUGCUCAUUAUUCAUUAUUGUUUGUUUUCAUUGUGCUGAUUUUUGGUGAUCAAGCCUCAGUCCCCU | 0.155 ratio
AAUGAAGCUGAAAUAUGUGAGAGCAUGCCCAUGGUCUCUGGAGCACCAGCACAAGGGUUGGUAGCAAGACCAUCCAGUGUGAACUAUAUGGUAGCACCUGUGACAGGUAACGAUGCUGGA | 0.145 ratio
UUUCUUUCUUUUUUUUUUUUUUUUGAGAAGUCACCUGUUUUCCUUUUACAGGUGACUGAUUAUAGUAUUGGCUUUCAAGAUGUUCCUCAGGCUGGGCGUGGGGGCUCACGCCUUUAAUGC | 8.23 ratio
CAGCCUCUGGGGCGCAUUCCAACCUUCCAGCCUGCGACCUGCGGAGAAAAAAAAUUACUUAUUUUCUUGCCCCAUACAUACCUUGAGGCGAGCAAAAAAAUUAAAUUUUAACCAUGAGGG | 0.247 ratio
AGAGAAAGAGAGCAUGAGAGGGAGCGAGACAGGCGACCAACACAGAGGAGAGAAAACAAAAAUAGCAAAAAAAAAAAAAAAAAGCAGUUCUUUAUAAUUUAAUAUUCUAUUUUAAUAAAG | 2.69 ratio
AAAACUACUAUUUUUAGUAUACUUGUUUACGUAAAUGCUGAUUGGAAAUAUUUAAAUGACUAUAGAUCUGAUUCUUUCUUUUCCUUUGGAAACUGGGAUUAAUGUAUGCUCUAGAUCCAU | 0.521 ratio
UUUUACCUGGAUAGGACUCUGUGGCUGGCCAAGUCCACCUCCUCAUCCUUUGCAUCAUUUAUAGUUCAACUUUUCCAAGUGGUUUUAAUGAAGCUCAAUUUUGAAACUUACAAAUUGAAA | 1.21 ratio

For quick reference, copied from above (sample 1):
Oligonucleotide | RBNS enrichment (R)
CUACAGAACUUAAAGUGAGGGAACCAUUUCCUCUCACAGACAAAGAGGCCUGGGAUAUUAGGACUUUGGGGUUUGAGAGCAUCAUGGGGCAGACAGAUGGUGGAUGGUCU | 0.671
CCACGCAGCCGCCUGCCCGGGAGAACCCUGCCUGAAGCUCUGGAAACUUGUGGGUGGGGCCCAGGGAGAUGGGGAGGGAGUGGCCCAGGCCUGCCCCUUCGCUCCUGCCU | 0.378
GACUUUGUGCCUUAAGUCUACUCAGUGCCUGGUGAAGCCACCCUCAGCCCUUCACAGGCCUGAACCAGUAGGGGCCAGUGGGCCAGGUAAGCCCUAGAGCCUUGAACCAG | 0.444
CUCUGUGCUGACCUUAUUCUUGGGGAAGGGAACAGAUUUUGACCUAGAUCAAGUGUAACUUAGGUCCUCACCCUUGGGACGACCUUGCCUUUUCUGCCUUGAGGGGCAGU | 0.297
AGUCUGUAGGGAUACAUUUUUCUGUGGUUGGUUUUCUUCAGCUAAGAGUCGCUGUCAGCAGGAGCUUUCUGACCUGUUAAUUCAGGUUCUUUUUGGUUUAGGUUGGGUUU | 0.605
UCUUCCCCAAACUAGCUCAUUAAAGAUGAAAUAGACCAGCUCUCUUCAGUGAAGAGGACAAAUAGUUUAUUUAAAGCAUUUGUUCCAAUAAAAUAACUAGAGGGAAACUU | 0.444
